Results pooled from the literature.
± gives the spread as reported.
CSNK1D: Casein kinase I isoform delta (CSNK1D, Homo sapiens, UniProt P48730)
Sequence of UniProt P48730 (whole entry, looked up): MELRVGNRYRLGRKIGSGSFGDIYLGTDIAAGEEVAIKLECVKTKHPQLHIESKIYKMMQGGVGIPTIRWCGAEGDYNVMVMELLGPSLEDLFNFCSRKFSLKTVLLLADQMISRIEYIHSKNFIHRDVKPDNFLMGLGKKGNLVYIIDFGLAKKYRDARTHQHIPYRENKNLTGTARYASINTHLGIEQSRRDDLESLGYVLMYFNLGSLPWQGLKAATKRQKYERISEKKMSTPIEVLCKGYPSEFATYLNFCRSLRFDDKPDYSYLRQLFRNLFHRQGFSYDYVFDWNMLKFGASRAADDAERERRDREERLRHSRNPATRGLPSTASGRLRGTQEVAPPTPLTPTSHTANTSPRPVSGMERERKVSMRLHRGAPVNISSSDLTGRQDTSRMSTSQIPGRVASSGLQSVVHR
SLCO1B1: Solute carrier organic anion transporter family member 1B1 (SLCO1B1, Homo sapiens, UniProt Q9Y6L6)
Sequence of UniProt Q9Y6L6 (whole entry, looked up): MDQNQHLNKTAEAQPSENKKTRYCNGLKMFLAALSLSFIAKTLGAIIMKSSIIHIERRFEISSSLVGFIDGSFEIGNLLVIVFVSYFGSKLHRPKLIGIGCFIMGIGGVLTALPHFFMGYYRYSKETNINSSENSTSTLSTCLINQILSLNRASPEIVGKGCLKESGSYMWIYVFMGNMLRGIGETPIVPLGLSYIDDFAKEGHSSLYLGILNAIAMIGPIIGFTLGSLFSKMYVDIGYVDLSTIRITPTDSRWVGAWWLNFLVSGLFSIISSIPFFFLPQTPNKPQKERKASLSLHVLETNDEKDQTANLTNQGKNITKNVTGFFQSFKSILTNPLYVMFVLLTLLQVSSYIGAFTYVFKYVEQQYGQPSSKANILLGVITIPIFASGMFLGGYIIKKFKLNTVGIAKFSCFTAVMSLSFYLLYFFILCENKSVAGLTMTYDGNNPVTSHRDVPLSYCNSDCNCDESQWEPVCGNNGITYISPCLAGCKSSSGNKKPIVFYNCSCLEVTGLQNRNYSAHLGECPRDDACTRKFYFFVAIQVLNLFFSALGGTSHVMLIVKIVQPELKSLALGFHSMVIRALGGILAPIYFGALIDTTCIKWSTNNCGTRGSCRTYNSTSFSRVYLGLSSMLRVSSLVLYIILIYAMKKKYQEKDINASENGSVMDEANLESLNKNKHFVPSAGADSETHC
IDE: Insulin-degrading enzyme (IDE, Homo sapiens, UniProt P14735)
Sequence of UniProt P42568 (whole entry, looked up): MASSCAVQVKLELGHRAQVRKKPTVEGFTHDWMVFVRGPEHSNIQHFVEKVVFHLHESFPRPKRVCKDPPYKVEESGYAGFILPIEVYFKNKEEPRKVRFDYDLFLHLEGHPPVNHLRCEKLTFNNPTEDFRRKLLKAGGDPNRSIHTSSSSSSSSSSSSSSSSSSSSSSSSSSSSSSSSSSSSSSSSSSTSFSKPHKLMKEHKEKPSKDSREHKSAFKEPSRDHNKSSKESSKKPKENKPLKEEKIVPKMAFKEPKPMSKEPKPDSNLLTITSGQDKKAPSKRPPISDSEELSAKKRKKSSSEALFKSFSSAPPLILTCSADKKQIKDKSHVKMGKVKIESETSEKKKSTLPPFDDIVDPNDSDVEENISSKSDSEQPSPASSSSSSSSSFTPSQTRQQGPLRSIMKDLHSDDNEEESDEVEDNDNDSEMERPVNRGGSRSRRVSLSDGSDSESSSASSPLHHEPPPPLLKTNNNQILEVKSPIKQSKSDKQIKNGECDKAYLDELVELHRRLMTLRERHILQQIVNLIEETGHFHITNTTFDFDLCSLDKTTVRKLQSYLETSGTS
Sequence of UniProt P14555 (whole entry, looked up): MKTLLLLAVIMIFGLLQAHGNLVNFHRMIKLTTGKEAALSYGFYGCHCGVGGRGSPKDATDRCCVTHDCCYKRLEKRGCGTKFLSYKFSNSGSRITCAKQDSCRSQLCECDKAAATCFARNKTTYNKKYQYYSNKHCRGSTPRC
Sequence of UniProt P00383 (whole entry, looked up): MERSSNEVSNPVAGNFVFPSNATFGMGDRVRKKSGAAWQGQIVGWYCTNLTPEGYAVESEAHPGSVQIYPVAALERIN
Sequence of UniProt P05181 (whole entry, looked up): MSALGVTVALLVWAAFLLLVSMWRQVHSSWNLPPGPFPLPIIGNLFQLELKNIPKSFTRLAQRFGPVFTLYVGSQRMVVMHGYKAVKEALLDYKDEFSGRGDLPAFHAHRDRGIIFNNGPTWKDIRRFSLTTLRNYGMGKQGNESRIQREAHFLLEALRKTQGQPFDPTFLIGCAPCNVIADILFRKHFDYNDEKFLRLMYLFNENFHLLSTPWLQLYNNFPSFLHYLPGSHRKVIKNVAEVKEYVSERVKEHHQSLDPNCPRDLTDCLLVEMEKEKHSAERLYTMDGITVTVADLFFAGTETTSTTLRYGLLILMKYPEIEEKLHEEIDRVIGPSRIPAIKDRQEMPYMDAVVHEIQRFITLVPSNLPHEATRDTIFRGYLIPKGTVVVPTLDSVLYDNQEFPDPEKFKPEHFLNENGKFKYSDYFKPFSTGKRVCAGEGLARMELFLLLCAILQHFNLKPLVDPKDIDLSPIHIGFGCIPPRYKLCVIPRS
Sequence of UniProt P28074 (whole entry, looked up): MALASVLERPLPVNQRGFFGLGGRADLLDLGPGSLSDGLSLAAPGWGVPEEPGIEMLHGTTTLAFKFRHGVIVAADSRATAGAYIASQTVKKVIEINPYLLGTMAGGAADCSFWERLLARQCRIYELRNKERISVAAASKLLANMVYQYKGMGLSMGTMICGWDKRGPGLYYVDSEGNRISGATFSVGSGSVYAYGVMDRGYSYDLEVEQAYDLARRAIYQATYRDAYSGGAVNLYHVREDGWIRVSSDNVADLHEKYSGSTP
Sequence of UniProt P00747 (whole entry, looked up): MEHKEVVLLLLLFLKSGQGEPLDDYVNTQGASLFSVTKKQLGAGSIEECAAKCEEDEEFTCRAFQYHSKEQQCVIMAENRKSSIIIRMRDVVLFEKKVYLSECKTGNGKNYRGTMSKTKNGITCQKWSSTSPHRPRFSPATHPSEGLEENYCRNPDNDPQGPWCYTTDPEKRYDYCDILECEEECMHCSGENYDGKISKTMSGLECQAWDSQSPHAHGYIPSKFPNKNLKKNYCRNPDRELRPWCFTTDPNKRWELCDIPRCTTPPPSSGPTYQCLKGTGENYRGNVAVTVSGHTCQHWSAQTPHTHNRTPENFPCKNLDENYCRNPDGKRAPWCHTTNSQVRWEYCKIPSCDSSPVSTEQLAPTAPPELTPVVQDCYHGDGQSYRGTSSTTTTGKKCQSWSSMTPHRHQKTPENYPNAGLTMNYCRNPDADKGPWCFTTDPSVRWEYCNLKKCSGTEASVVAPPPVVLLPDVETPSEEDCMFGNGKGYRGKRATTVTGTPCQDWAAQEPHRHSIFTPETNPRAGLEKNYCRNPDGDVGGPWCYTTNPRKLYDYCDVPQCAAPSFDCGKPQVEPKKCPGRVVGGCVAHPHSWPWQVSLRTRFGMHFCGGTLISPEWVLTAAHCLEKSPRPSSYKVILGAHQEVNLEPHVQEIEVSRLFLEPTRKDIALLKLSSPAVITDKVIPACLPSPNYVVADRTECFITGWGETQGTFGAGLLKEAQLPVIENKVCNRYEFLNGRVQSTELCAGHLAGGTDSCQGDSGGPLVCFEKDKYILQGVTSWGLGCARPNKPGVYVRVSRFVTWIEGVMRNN
Sequence of UniProt P07949 (whole entry, looked up): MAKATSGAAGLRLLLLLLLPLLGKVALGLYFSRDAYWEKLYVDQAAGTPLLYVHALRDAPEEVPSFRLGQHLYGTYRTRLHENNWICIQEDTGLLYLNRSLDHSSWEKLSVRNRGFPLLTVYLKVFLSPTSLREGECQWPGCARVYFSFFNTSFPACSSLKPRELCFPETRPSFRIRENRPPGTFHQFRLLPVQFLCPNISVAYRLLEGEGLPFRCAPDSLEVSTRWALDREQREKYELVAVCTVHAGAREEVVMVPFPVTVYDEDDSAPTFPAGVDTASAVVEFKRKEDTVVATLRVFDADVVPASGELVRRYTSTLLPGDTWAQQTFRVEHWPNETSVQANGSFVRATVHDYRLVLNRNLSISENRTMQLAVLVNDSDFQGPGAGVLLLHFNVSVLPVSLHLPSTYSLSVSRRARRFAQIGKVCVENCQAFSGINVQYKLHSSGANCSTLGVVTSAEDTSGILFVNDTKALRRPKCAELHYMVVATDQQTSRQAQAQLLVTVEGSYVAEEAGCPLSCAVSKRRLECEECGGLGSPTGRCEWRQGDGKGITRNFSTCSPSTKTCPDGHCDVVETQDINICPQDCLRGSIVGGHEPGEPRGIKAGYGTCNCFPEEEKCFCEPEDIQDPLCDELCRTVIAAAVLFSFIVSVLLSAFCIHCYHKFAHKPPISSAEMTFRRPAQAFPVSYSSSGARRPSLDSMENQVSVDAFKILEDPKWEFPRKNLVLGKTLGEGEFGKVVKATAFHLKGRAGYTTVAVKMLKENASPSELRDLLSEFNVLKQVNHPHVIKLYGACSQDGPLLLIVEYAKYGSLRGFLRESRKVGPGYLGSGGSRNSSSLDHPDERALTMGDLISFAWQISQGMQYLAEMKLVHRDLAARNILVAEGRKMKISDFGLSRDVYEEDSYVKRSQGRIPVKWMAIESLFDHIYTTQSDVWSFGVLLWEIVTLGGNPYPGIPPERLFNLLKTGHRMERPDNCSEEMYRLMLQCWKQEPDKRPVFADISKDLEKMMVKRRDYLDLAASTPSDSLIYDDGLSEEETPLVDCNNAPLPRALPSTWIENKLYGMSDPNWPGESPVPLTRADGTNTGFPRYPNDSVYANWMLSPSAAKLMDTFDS

SMILES | target | test | system | conditions | measurement | value
Cc1cc(OC(C)C)ccc1C(=O)C(C)(C)NC(=O)c1sccc1C | succinate-cytochrome c oxidoreductase (Alternaria solani, UniProt S5TR76+S5TST0+S5U054) | succinate-cytochrome c reductase activity | Alternaria solani, mitochondrial fraction | 25 °C | IC50 | 0.00779 µM
c1cc(N2CCCCC2)ccc1-c1cc2ncc(OCC3CCNCC3)nc2cc1-c1ccc(N2CCCCC2)cc1 | Protein AF-9, with DOT1L (Homo sapiens, UniProt P42568) | DOT1L binding, AlphaLISA |  |  | IC50 | 0.85 µM
CC(C)N(C)C(=O)c1ccc2nc(-c3ccccc3)cn2c1 | Protein AF-9, YEATS domain (Homo sapiens, UniProt P42568) | YEATS domain binding, inhibitor, HTRF |  |  | IC50 | > 50 µM
Cc1nc2ccc(Br)cc2c(=O)n1/N=C/c1ccc(C(=O)O)cc1 | Phospholipase A2, membrane associated (Homo sapiens, UniProt P14555) | enzyme activity, inhibitor, colorimetric |  |  | IC50 | 68.1 ± 4.74 µM
Fc1ccc(-c2nc(-c3c(F)cccc3I)[nH]c2-c2ccncc2)cc1 | CSNK1D | inhibitor |  |  | IC50 | 0.0256 ± 0.0087 µM
CCOC(=O)c1ccc(NC(=O)c2cc3cc(S(N)(=O)=O)ccc3oc2=O)cc1 | alpha-glucosidase | inhibitor, colorimetric |  |  | IC50 | 2440 µg/mL
C[C@H]1O[C@H](O[C@H]2[C@H](O)[C@@H](O)[C@@H](O[C@H]3[C@H](O)[C@@H](O)C(O)O[C@@H]3CO)O[C@@H]2CO)[C@H](O)[C@@H](O)[C@@H]1N[C@H]1C=C(CO)[C@@H](O)[C@H](O)[C@H]1O (some centres unmarked) | alpha-glucosidase | enzyme activity, inhibitor |  | together with: p-nitrophenyl-alpha-D-glucopyranoside | IC50 | 145 µM
Cc1ncc(C(=O)N[C@@H](CC(C)C)C(=O)N[C@@H](CC2CCC(C)CC2)C(=O)N[C@H](/C=C/S(C)(=O)=O)Cc2ccc(CN)cc2)s1 (some centres unmarked) | PSMB5 (Homo sapiens, UniProt P28074) | competitive ABPP | Raji cell lysate |  | IC50 | > 10 µM
CCc1oc2ccccc2c1C(=O)c1cc(Br)c(O)c(Br)c1 | Cytochrome P450 2E1 (CYP2E1, Homo sapiens, UniProt P05181) | p-nitrophenol hydroxylation, inhibitor | baculosomes | 10 min, with additive 100 µM | IC50 | 129 µM
CCS(=O)(=O)N1CC(CC#N)(n2cc(-c3ncnc4[nH]ccc34)cn2)C1 | SLCO1B1 | transport, inhibitor | human, SLCO1B1-expressing cells | together with: [3H]estrone-3-sulfate and [3H]pravastatin substrates | IC50 | no inhibition
COCC(=O)N1CCC[C@H](C(=O)NCc2nc(-c3ccc(OC)cc3)cs2)C1 | uncharacterized protein (Plasmodium falciparum, UniProt A0A5K1K7U1+Q8I261+Q8IJT1) | Suc-LLVY-AMC |  | together with: WLW-vs 0.5 µM | IC50 | 0.12 ± 0.0058 µM
COc1ccccc1-c1ccc([C@H]2[C@@H]3CN(C(=O)c4cccnc4)C[C@H]2N3)cc1 | IDE | enzyme activity, inhibitor, fluorogenic kinetic |  | together with: Mca-RPPGFSAFK(Dnp)-OH substrate | EC50 | 7.1 µM
O=C(Nc1ccc(CCF)cc1)c1cc([N+](=O)[O-])ccc1Cl | Peroxisome proliferator-activated receptor gamma, ligand-binding domain (PPARG, Homo sapiens, UniProt P37231) | binding, scintillation proximity | His-tagged ligand-binding domain | together with: [3H]rosiglitazone | IC50 | 0.0301 ± 0.0058 µM
CCn1c(-c2nc3ccc(C(=O)N4CCCC(N)C4)cc3n2C)cc2ccccc21 (centres unmarked) | SLCO1B1 | transport, inhibitor, imaging |  |  | IC50 | > 50.1 µM
Cc1cccc(-c2nc(-c3ccc(/C(N)=N/O)cc3)[nH]c2-c2ccncc2)c1 | CSNK1D | inhibitor |  |  | IC50 | 0.889 ± 0.29 µM
COCC(=O)N1CCCCN2[C@H](CO)[C@@H](c3ccc(-c4cccc(C)c4)cc3)[C@@H]2C1 | IDE | enzyme activity, inhibitor, fluorogenic kinetic |  | together with: Mca-RPPGFSAFK(Dnp)-OH substrate | EC50 | 16 µM
O=C(NCCO)c1ccc2nc(-c3ccc(OCCC(O)COc4ccc(-c5nc6ccc(C(=O)NCCO)cc6[nH]5)cc4Br)c(Br)c3)[nH]c2c1 (centres unmarked) | Dihydrofolate reductase type 2 (Escherichia coli, UniProt P00383) | enzyme activity |  | pH 7 | IC50 | > 50 µM
Cc1cnc(-c2ccc(-c3ccc(NC(=O)Nc4c(F)cc(F)cc4F)cc3F)c3c2C(=O)NC3)[nH]1 | RET (Homo sapiens, UniProt P07949) | enzyme activity, inhibitor, mobility shift |  | together with: ATP 1 mM | IC50 | 0.228 µM
NCc1ccc(CNC(=O)c2cnn(Cc3ccc(Cn4ccccc4=O)cc3)c2)cc1 | Plasminogen (PLG, Homo sapiens, UniProt P00747) |  |  |  | IC50 | 28 µM
COc1ccccc1OCCNCC(O)COc1cccc2[nH]c3ccccc3c12 (centres unmarked) | ADRB3 (Homo sapiens, UniProt A8KAG8) | antagonist, cAMP |  |  | IC50 | 0.00558 µM

Some of these lines once more:
SMILES | target | test | system | conditions | measurement | value
c1cc(N2CCCCC2)ccc1-c1cc2ncc(OCC3CCNCC3)nc2cc1-c1ccc(N2CCCCC2)cc1 | Protein AF-9, with DOT1L (Homo sapiens, UniProt P42568) | DOT1L binding, AlphaLISA |  |  | IC50 | 0.85 µM
CC(C)N(C)C(=O)c1ccc2nc(-c3ccccc3)cn2c1 | Protein AF-9, YEATS domain (Homo sapiens, UniProt P42568) | YEATS domain binding, inhibitor, HTRF |  |  | IC50 | > 50 µM
